Measurements gathered from unrelated publications.
Every numbered part comes from another study and shows a few of its results, in no order.

Block 1
Target: Prothrombin, mature alpha-thrombin (F2, Homo sapiens, UniProt P00734)
Technique: aptamer microarray, sandwich
Form: DNA with 2'F-ANA
Sample: in vitro
Tested at: 200 nM
Setting: whole 15-mer aptamer, many near background
Added: Cy3 exosite-II aptamer, 400 nM
Direction: higher = stronger binding
| Oligonucleotide | mean fluorescence intensity [a.u.] |
| --- | --- |
| GGTTGGTGTGGTTGG (2'F-ANA at 1 3 7 14) | 97.8 |
| GGTTGGTGTGGTTGG (2'F-ANA at 1 2 3 4 8 9 10 11 12 13 15) | 62.1 |
| GGTTGGTGTGGTTGG (2'F-ANA at 3 5 6 7 8 12 14) | 63.7 |

Block 2
Target: RNA binding protein fox-1 homolog 2, RRM domain, GST-SBP tag (RBFOX2, Homo sapiens, UniProt O43251-10, residues 100-194)
Technique: RNA Bind-n-Seq
Form: RNA
Sample: in vitro
Tested at: 365 nM
Setting: natural RNA segment, single round, ends assumed
Reference: no-protein control
Direction: higher = stronger binding
Construct (chain): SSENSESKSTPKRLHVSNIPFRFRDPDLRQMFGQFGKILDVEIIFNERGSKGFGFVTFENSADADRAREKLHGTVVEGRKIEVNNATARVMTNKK
| Oligonucleotide | RBNS enrichment (R) |
| --- | --- |
| GGGAGUUCUACAGUCCGACGAUCACAAAACAGGCAACAUCCGCCCAGUGGACAUGGAGAUUAGAAGUGACUGUAUGGUCCGGGGGGUUCCUGCUGAGGAGAGGGGCUGAGGGUCCCAUGGAGAAGGGGCUGUAUGGAAUUCUCGGGUGCCAA | 0.931 |
| GGGAGUUCUACAGUCCGACGAUCCCUUCAGGCACCGACGCCCAACCUGCCGUGACCUGUGCUGUAUGAACAACCUCACUGAGGAUUUCCUCCCGGCAGAAAAGCAGCAAGCUCUGCAAAUAUCCCAAAGUUAUUGGAAUUCUCGGGUGCCAA | 0.342 |
| GGGAGUUCUACAGUCCGACGAUCGAGCCUGAUGACUCCAAACAAAGCCAUCACCCGCAUUCUUCCUCCUUCUUCUGGUGCUACAGCUCCAAGGGCCCUUCACCUUCAUGUCUGAAAUGGAACUUUGGCUUUUUUGGAAUUCUCGGGUGCCAA | 0.794 |
| GGGAGUUCUACAGUCCGACGAUCCUUGUUUCCUAACCGUGCAGUGGUAGGUAUUAGUACACUGGGCACUUCCCCAGGGAUCUGGGGAAGACCAGAGCUUGCAGCUCUGCCUGCUUUGAUCCAUAUUUCUCACAUGGAAUUCUCGGGUGCCAA | 0.519 |

Block 3
Target: Interferon regulatory factor 5, full length, phosphomimetic (IRF5, Homo sapiens, UniProt Q13568-2, residues 1-514, S451D/S453D/S456D/S462D)
Technique: protein-binding microarray
Form: double-stranded DNA, one strand shown
Sample: in vitro
Tested at: 940 nM top
Setting: 60-bp whole probe
Added: salmon DNA 0.4 mg/ml
Reference: random background probes
Direction: higher = stronger binding
| Oligonucleotide | fitted relative affinity |
| --- | --- |
| GCCTAGCACGTAGGACTGGGGTTTCGGTTAGTGCTAGTCTTGATTCGCTTGACGCTGCTG | 5.38 z-score |
| GCCTAGCACACACTTTCCCCTTCCTAGTTGTGCTAGGTCTTGATTCGCTTGACGCTGCTG | 2.42 z-score |
| GCCTAGCACGACGGTCTCGCTTTCGGGACGTGCTAGGTCTTGATTCGCTTGACGCTGCTG | 2.28 z-score |
| GCCTAGCACGACGGTTTGCTTATCCTGACGTGCTAGGTCTTGATTCGCTTGACGCTGCTG | 0.0142 z-score |

Further values, each from its own experiment
| Molecule | target | assay | test system | conditions | how to read | quantity | result |
| --- | --- | --- | --- | --- | --- | --- | --- |
| PhoQ, residues 284 288 289 292 302 303 TNSAEL | PhoP, residues 12 14 15 18 19 NNFVT (Escherichia coli, UniProt P23836) | Sort-seq, measured: YFP reporter | E. coli | PhoQ-PhoP variant library, added: 10 µM Mg2+ | reference: high Mg2+ state, higher = stronger signaling | fold induction | 1.77 |

Some of these lines once more (block 2):
| Oligonucleotide | RBNS enrichment (R) |
| --- | --- |
| GGGAGUUCUACAGUCCGACGAUCGAGCCUGAUGACUCCAAACAAAGCCAUCACCCGCAUUCUUCCUCCUUCUUCUGGUGCUACAGCUCCAAGGGCCCUUCACCUUCAUGUCUGAAAUGGAACUUUGGCUUUUUUGGAAUUCUCGGGUGCCAA | 0.794 |
| GGGAGUUCUACAGUCCGACGAUCCUUGUUUCCUAACCGUGCAGUGGUAGGUAUUAGUACACUGGGCACUUCCCCAGGGAUCUGGGGAAGACCAGAGCUUGCAGCUCUGCCUGCUUUGAUCCAUAUUUCUCACAUGGAAUUCUCGGGUGCCAA | 0.519 |
